Results pooled from the literature.
Parts stem from different laboratories: compare values within a part only.

Study 1 — method: RNA Bind-n-Seq; molecule type: RNA; matrix: in vitro; tested at: 1 µM; setting: whole 134-nt RNA, ends assumed; with: 150 mM KCl; baseline: input library; reading: higher = stronger binding; measurement: log2 enrichment
Target: Ras GTPase-activating protein-binding protein 1, C-terminal RGG region (G3BP1, Homo sapiens, UniProt Q13283)
Chain of UniProt Q13283 (whole entry, looked up): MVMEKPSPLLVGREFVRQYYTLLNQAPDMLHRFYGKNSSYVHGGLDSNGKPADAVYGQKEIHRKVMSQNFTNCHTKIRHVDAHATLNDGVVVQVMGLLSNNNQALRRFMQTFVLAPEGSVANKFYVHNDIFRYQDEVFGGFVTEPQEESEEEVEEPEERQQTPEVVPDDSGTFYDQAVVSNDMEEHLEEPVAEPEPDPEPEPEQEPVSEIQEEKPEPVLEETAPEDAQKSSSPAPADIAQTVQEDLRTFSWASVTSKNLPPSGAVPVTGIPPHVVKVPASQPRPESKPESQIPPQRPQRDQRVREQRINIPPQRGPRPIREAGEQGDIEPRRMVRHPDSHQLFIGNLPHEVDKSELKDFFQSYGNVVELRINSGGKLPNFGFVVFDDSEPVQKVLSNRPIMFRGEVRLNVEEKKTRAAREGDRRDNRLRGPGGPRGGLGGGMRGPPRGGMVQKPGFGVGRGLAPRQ
Shared flanks, not repeated: GGGAGUUCUACAGUCCGACGAUC … UGGAAUUCUCGGGUGUCAAGG
Sequence = GUCCUGUGCUACACAUCGUAUGUACCGAAUCAAAUUUUUUUAAACCCCCAAACCCAAAAAAGUAUUAUGUUACGCCGUUCGGAUCUGCAC; value = -0.929
Sequence = UGGGAGGUGGAUUUUGUUUAUUUUUUUAGCUCCUUUCCAGGGGUGGGAAUUUUUUUUUAAUAUGUGUCAUGAAUAAAGUUGUUUUUGAAA; value = 3.2
Sequence = UUCGACGGCGCCGGGCGAGUGGCUGUUGAGCGGCGCCGCGGGAGUUCCGCAGGUUUCCCGUGUUCGCAGCGGAGCCGGAGGCCAGCUGAA; value = -3.3
Sequence = AGUCCUGUGCUACACAUCGUAUGUACCGAAUCGGGCCCCCGGGGCCCCCGGCCCCCGGAAAGUAUUAUGUUACGCCGUUCGGAUCUGCAC; value = -2.05
Sequence = GUCCUGUGCUACACAUCGUAUGUACCGAAUCGGGGAAAAAAAGGGGUGGGGAAAGGGGAAAGUAUUAUGUUACGCCGUUCGGAUCUGCAC; value = 1.93
Sequence = CCUGUGCUACACAUCGUAUGUACCGAAUCGGAAAAAAAGGGAAAAAAAGGAAAAAAAGGGAAAGUAUUAUGUUACGCCGUUCGGAUCUGC; value = -1.92
Sequence = GCAGGAAGUAAAAACUAAUGGAAAUGCUUCGGAUAGUGGCAGGGGUGGGGGUUGCUAAGGAAAGGGUGGGAUGGGAGUGGGUAAAGAGUU; value = 1.81
Sequence = UGGCCCUGGUGGCAUGCGGGGAGGAAGAGGUGGCCUCAUGGAUCGUGGUGGUCCCGGUGGAAUGUUCAGAGGUGGCCCUGGUGGAGACAG; value = 3.2
Sequence = CCUGUGCUACACAUCGUAUGUACCGAAUCGGUUUUUUUGGUUUUUUUGGGGUUUUUUUGGGAAAGUAUUAUGUUACGCCGUUCGGAUCUG; value = -1.64

Study 2 — method: competition protein-binding microarray; molecule type: double-stranded DNA, one strand shown; matrix: in vitro; tested at: 2 µM; with: Pho4 competitor, 0.05 µM; reading: higher = stronger binding; measurement: fluorescence intensity; shared flanks, not repeated: … GTCTTGATTCGCTTGACGCTGCTG
Target: Centromere-binding protein 1, full length, His-tagged (CBF1, Saccharomyces cerevisiae, UniProt P17106, residues 1-351)
Chain of UniProt P17106 (whole entry, looked up): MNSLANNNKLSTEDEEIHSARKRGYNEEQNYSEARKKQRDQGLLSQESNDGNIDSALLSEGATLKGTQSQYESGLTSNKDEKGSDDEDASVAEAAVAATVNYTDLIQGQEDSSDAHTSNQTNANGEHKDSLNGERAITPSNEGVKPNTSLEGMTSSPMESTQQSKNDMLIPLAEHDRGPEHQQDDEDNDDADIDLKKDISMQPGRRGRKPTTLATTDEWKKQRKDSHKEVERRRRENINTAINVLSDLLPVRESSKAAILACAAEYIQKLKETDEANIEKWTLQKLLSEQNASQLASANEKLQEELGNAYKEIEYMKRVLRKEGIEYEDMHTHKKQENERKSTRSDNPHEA
Setting: whole 60-bp probe, lowest competitor level
Sequence = AAATTACTAAGTTGAACTGTGGGTGACGCCGTATGA; value = 76.5 a.u.
Sequence = AGCAGAATTACCCTCCACGTTGATTGTCTGCGAGGC; value = 73.7 a.u.
Sequence = AAACTGGCAGCGATATGCATGACAGTGGGGAAAGTA; value = 62.2 a.u.
Sequence = AATTTGAATGGTAAGCTCGTGACGGAATTGTGGCTG; value = 364 a.u.
Sequence = CTTTCCCGATCTTGTCACCTGACTTTAGCACATTTG; value = 1920 a.u.
Sequence = CGTCCTAGTGATTTTCACGTGAATTCCATGAGGAAG; value = 980 a.u.
Sequence = CTTTCCCGATCTTGTAACGTGGGTGTAGCACATTTG; value = 98.1 a.u.
Sequence = TTGTCCTCGATACGGCATGCGTATAAAGAGATATAA; value = 85.5 a.u.
Sequence = CGGTCAGCCAACTGGCACGTGGTGAGTGTGCCTGGA; value = 1300 a.u.
Sequence = AAATTACTAAGTTTTCACGTGAAATACCCCGTATGA; value = 785 a.u.
Sequence = CGGGGTTAAGTTTTTCACGTGAAGTGCTTGCAGCAG; value = 658 a.u.
Sequence = CTAACGAAGGTTTGATGTGTGGGTGACAAGCCAAGT; value = 75.4 a.u.
Sequence = CACGTAGAAGCTATCTTGATCAAGACTCTTTCTTTA; value = 93.2 a.u.
Sequence = ACCATATTGATTTCGCATGTGTCTCTGGTTCATCGG; value = 98.6 a.u.
Sequence = ACTCTAAGGTTATAGCATGTGCTATTGATAACCCAG; value = 163 a.u.
Sequence = GTCTTGTCTCATTGTCACGCAACTTTCCCCACTTCA; value = 149 a.u.
Sequence = TGCTCTCCCCCCTTCCTCGTGCTTTGCGACTGTTTA; value = 146 a.u.
Sequence = ATTGTCCCTTTCCATCACGTGTGGATTTAAGTAGCT; value = 3130 a.u.
Sequence = GTTGGCGAGGAAGATCGCGTGCGGACTAATTTTGAA; value = 113 a.u.

Study 3 — method: protein-binding microarray; molecule type: double-stranded DNA, one strand shown; matrix: in vitro; tested at: 250 nM; setting: 60-bp whole probe; with: salmon DNA 0.4 mg/ml; baseline: random background probes; reading: higher = stronger binding; measurement: log fluorescence; shared flanks, not repeated: GCCTAGCAC … GTCTTGATTCGCTTGACGCTGCTG
Target: Interferon regulatory factor 5, full length, phosphomimetic (IRF5, Homo sapiens, UniProt Q13568-2, residues 1-514, K96S/S451D/S453D/S456D/S462D)
Sequence = GACGATCTCTGACTGGAGACGTGCTAG; value = -0.295 z-score
Sequence = GACTGTTTCCTTTCCCTGACGTGCTAG; value = 1.44 z-score
Sequence = TTAGATTACAGACTGGATTAGTGCTAG; value = -0.0705 z-score
Sequence = TTAGGTTTCGGTACTGGGTTAGTGCTA; value = 9.55 z-score
Sequence = GTTGAGTTCTGTTGCAAAGGGTGCTAG; value = 0.153 z-score
Sequence = GACGCTTTCGACTTTCGGGACGTGCTA; value = 8.62 z-score
Sequence = TTAGGTTTCAGGACTGGGTTAGTGCTA; value = 1.51 z-score
Sequence = TCCATTTTGGTTTTCATTATGTGCTAG; value = 2.28 z-score
Sequence = TGAGGTCTCCTACTGCTTTAGTGCTAG; value = -0.399 z-score
Sequence = TCAAGTATTTTTTTCCAACTGTGCTAG; value = 0.561 z-score
Sequence = TTAGGTGTCGGTTTCGGTTAGTGCTAG; value = 8.61 z-score

Study 4 — method: protein binding microarray; molecule type: double-stranded DNA, one strand shown; matrix: in vitro; tested at: not given; baseline: not given; reading: higher = stronger binding; measurement: E-score
Target: Histone acetyltransferase KAT6A, both winged helices, GST fusion (KAT6A, Homo sapiens, UniProt Q92794, residues 1-181)
Setting: 8-mer, flanks averaged, mean of 2 arrays, mostly near background
Construct (chain): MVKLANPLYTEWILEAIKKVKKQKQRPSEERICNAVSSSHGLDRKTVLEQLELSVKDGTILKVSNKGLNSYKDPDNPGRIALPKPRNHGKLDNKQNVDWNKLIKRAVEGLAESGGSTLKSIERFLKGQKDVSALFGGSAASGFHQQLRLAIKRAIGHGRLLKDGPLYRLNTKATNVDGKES
Sequence = CGGAGTGC; value = 0.14
Sequence = ACAAAGGA; value = -0.252
Sequence = AAAATAAA; value = -0.177
Sequence = ACGTGTCT; value = -0.0275
Sequence = CTAATTGA; value = -0.138
Sequence = CCTAACCA; value = -0.181
Sequence = ACTAGTCT; value = -0.174
Sequence = ACATGAGG; value = -0.132
Sequence = AGTATGTG; value = -0.192
Sequence = CAGCTCCC; value = -0.0951
Sequence = AGGCATAT; value = -0.219
Sequence = CCGGTTGC; value = 0.24
Sequence = TGGTAACA; value = -0.0816
Sequence = CAATAAAC; value = -0.0268
Sequence = ATTTGCAA; value = -0.0334
Sequence = AACTCTAA; value = -0.117
Sequence = ATCCAATG; value = -0.0956

For quick reference, copied from above (study 2):
Sequence = CTTTCCCGATCTTGTCACCTGACTTTAGCACATTTG; value = 1920 a.u.
Sequence = ATTGTCCCTTTCCATCACGTGTGGATTTAAGTAGCT; value = 3130 a.u.
Sequence = CGTCCTAGTGATTTTCACGTGAATTCCATGAGGAAG; value = 980 a.u.
Sequence = TTGTCCTCGATACGGCATGCGTATAAAGAGATATAA; value = 85.5 a.u.
Sequence = AAATTACTAAGTTTTCACGTGAAATACCCCGTATGA; value = 785 a.u.
